Results collected from several papers.
Every numbered part comes from another study and shows a few of its results, in no order. Positions count from the first letter of the parent shown.

Set 1 — technique: protein binding microarray; form: double-stranded DNA, one strand shown; matrix: in vitro; tested at: not given; reference: not given; reading: higher = stronger binding
Target: Histone acetyltransferase KAT6A, winged helix 2, GST fusion (KAT6A, Homo sapiens, UniProt Q92794, residues 85-181)
Setting: 8-mer, flanks averaged, mean of 2 arrays, mostly near background
Target sequence (chain): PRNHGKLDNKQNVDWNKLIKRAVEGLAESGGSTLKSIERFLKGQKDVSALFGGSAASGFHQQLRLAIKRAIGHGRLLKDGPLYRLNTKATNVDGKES
Oligonucleotide	E-score
GACTCACA	0.0535
CATGCTAA	0.104
CGCTTACG	-0.105
ATGGTCCG	0.0408
AGTCCTGG	0.0165
ATCTTCGC	0.0292
GCGGGTTA	0.0136
CGATCCGA	0.152
AAACTTTA	-0.108
CACTAGCG	0.0263
CTTGCGCC	0.0664

Set 2 — target: CCNA2, cyclin fold, Cln2 fusion (human); technique: yeast growth competition, sequencing; matrix: yeast; setting: strong parent motif; reference: not given; reading: higher = stronger binding
Parent: RBL1 docking peptide (human); GSAKRRLFGEDPP
Variant	normalised enrichment score
GSAKRRRFGEDPP [L7R]	0.54
GSARRRLFGEDPP [K4R]	6.65
GSAKRRCFGEDPP [L7C]	0.604
GSAKMRLFGEDPP [R5M]	1.04
GSAKRRLFVEDPP [G9V]	7.2
GSAKRELFGEDPP [R6E]	3.34
GSAKRRLFGEVPP [D11V]	5.07

Set 3 — technique: RNA Bind-n-Seq; form: RNA; matrix: in vitro; tested at: 365 nM; reference: no-protein control; reading: higher = stronger binding
Target: RNA binding protein fox-1 homolog 2, RRM domain, GST-SBP tag (RBFOX2, Homo sapiens, UniProt O43251-10, residues 100-194)
Setting: natural RNA segment, single round, ends assumed
Target sequence (chain): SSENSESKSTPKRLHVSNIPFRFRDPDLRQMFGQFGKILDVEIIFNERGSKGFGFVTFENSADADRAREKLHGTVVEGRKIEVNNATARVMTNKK
Oligonucleotide	RBNS enrichment (R)
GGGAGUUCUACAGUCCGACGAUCCCAGAUUCGGAAACUUCAACCUUGGCUGCUGGAGUCCUGUAGUGAUACCUGUAACAAUCAGAAAUUCUUAAUCGCUUGUGGUAUGGUUUUAAUUCUAGAUGUUUUAUCUCUGGAAUUCUCGGGUGCCAA	1.21
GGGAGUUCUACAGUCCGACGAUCUCUUCCUGCCUCCCCGUGGGAAGCCUCCGCCCUGAGGUCCGCUGGCCCACCACCCCUGGGUGCUCAGUUUCUACCAACAUGAGCCAGCAAGUCCUUGUGGUAGCCCUGGGUGGAAUUCUCGGGUGCCAA	0.316
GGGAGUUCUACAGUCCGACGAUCUUUGUCUUCUCUUUUCUGCACUUAAUACCUGACAGUAUGACCGAUCUCUGCGCCUUUCUGGGGGCGGGCAAGCUGGCGGUAGAUUUGUGAUGUCACAGUGCAAACUGCAGUGGAAUUCUCGGGUGCCAA	0.363
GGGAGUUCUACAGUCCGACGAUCUGGUUCCUCUUUCUCCAUCACUGGCUCCUUCUUUGAUGCUCUCUCCCCAUCUCAGGGUCAGACCAGCCUUCUCUCUUUACCUUCUUUAACCUGUCUCCCCUCCCUGGUUGUGGAAUUCUCGGGUGCCAA	0.821
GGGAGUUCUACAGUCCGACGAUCAAGUGUGAGAUUUCUGCUUAAGAGAAGUUGUGAAAUUGCACUCCCAUCGAGGGUUCUGAGAGUGACUUUUCUCUGUUGGGUGCUUUCUUUGCCACCCUCAUAGCUUUCCCUGGAAUUCUCGGGUGCCAA	0.293
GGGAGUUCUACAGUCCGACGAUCACCCCACUAUGCCGCAGGCCGCCCUACCCACCUUCAGGCAGCCUAUGGGACGCAGGGCCCCAUCUGUCCCUCGGUCGCCGUGUGGCCAGAGUGGGUCCGUCGUCCCCAACUGGAAUUCUCGGGUGCCAA	0.298
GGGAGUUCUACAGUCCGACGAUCUAUGAUAAACGUCUUCCAUAGAACUUACUAUAGUCAAAUAACAUAAAAAAACUGACCUAUACAAGUGUUAAGAACCUAAUAUGACAGACAUGAAAUAUGUAACUAGGAAAUGGAAUUCUCGGGUGCCAA	0.335
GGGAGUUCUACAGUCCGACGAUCAUUCCCUAGACCCAGGAUGGACCCUUCAGUUAUAGAAAUUUGUUUAUGGAACCCGGUGGCUCCCGUCAUGUUUCUCCUUACUCAUCCAAUUGGUACCCACAACUGAAGAGUGGAAUUCUCGGGUGCCAA	0.36
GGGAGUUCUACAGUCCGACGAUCGCUGGCACAUUGAUCCCAUUUCUGGAACAUUUCCUACUUCCAGAAUUCCGUAUGUUCCUUAGACAUUACCCCCACUUAACCUCCCUUCCUCUGAUAUGCCUUGUAGCUAAUGGAAUUCUCGGGUGCCAA	1.21
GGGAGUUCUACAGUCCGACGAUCAGAGCACCUUGUAUAGUAGGUCUGAGUCAAAUAGGACUGAAUUGGUGACAAAGUUUGCACUUACAAAAUCAUGUAAAUAUGUCACAUUUUGUUUUAACAUUUUUUUCAAAUGGAAUUCUCGGGUGCCAA	0.404
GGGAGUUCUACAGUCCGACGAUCGUUGUCAUUCUUAGGAAUUUGGUUUGAAAUUUAUCAGUUAUACAGAAUUGUCAUACUGCAUUAGCUUCUACCUUUAGUAAGACAUAUUUUUUAGGUAUAAAUUCUUAUGCUGGAAUUCUCGGGUGCCAA	0.924

Further values, each from its own experiment
Substance	target	assay	test system	setting	scale	quantity	value
PhoQ, residues 284 288 289 292 302 303 TYGVAM	PhoP, residues 12 14 15 18 19 LFHKL (Escherichia coli, UniProt P23836)	Sort-seq, measured: YFP reporter	E. coli	PhoQ-PhoP variant library, added: 10 µM Mg2+	reference: high Mg2+ state, higher = stronger signaling	fold induction	6.63

A few entries again (set 3):
Oligonucleotide	RBNS enrichment (R)
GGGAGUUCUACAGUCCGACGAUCACCCCACUAUGCCGCAGGCCGCCCUACCCACCUUCAGGCAGCCUAUGGGACGCAGGGCCCCAUCUGUCCCUCGGUCGCCGUGUGGCCAGAGUGGGUCCGUCGUCCCCAACUGGAAUUCUCGGGUGCCAA	0.298
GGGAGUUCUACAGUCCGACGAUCUAUGAUAAACGUCUUCCAUAGAACUUACUAUAGUCAAAUAACAUAAAAAAACUGACCUAUACAAGUGUUAAGAACCUAAUAUGACAGACAUGAAAUAUGUAACUAGGAAAUGGAAUUCUCGGGUGCCAA	0.335
